Experimental data collected from several papers.
Numbered parts are unrelated; each lists some results of a single study.

Series 1 — technique: protein-binding microarray; form: double-stranded DNA, one strand shown; medium: in vitro; concentration: 2200 nM top; setting: 60-bp whole probe; together with: salmon DNA 0.4 mg/ml; relative to: random background probes; direction: higher = stronger binding; endpoint: fitted relative affinity; shared flanks, not repeated: GCCTAGCAC … GTCTTGATTCGCTTGACGCTGCTG
Target: Interferon regulatory factor 7, full length, phosphomimetic (IRF7, Homo sapiens, UniProt Q92985, residues 1-503, S471D/S472D/S475D/S476D/S477D/S483D/S484D/S487D)
Sequence of UniProt Q92985 (whole entry, unmodified, looked up): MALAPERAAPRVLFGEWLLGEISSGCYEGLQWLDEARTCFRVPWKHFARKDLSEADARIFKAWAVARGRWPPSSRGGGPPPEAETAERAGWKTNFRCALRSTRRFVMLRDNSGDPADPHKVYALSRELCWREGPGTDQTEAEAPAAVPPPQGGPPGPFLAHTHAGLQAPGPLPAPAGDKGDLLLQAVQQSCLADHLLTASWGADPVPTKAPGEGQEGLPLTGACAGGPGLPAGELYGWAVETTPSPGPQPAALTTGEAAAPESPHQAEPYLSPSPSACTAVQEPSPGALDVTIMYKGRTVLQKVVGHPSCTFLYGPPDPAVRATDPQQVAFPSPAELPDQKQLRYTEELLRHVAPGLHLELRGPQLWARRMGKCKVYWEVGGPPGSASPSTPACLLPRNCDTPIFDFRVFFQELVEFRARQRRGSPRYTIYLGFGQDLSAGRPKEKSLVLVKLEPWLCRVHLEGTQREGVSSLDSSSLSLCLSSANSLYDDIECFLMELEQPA
TTGCAGATGACGAAACTGAAGTGCTAG: 0.34 z-score
GATTGGTTGAACATGAACTTGTGCTAG: 0.223 z-score
TTCGATTTCGGGTATCGATTAGTGCTA: 4.17 z-score
GGCTTTTTAATGAATGAAGAGGTGCTA: -0.903 z-score
TTAGGTATCCTCCTGCTTTAGTGCTAG: 0.839 z-score
GACGGTAACGGTATCGGGACGTGCTAG: -0.364 z-score
TTAGGACTGGGTAGCGGTTAGTGCTAG: -0.755 z-score
TTAGGTCTCCTACTGCATTAGTGCTAG: 0.557 z-score
TTAGGTCTCGGTATCGGTTAGTGCTAG: 0.862 z-score
TCACTCTCTCTATTCTGTGGGTGCTAG: 2 z-score
GAAGATTTCAGTTCCGAGACGTGCTAG: 1.42 z-score
GACGAAATGAGACTGGAGACGTGCTAG: -0.0994 z-score

Series 2 — technique: RNA Bind-n-Seq; form: RNA; medium: in vitro; concentration: not given; relative to: input RNA pool; direction: higher = stronger binding; endpoint: bound/input enrichment
Target: RING finger protein unkempt homolog, zinc fingers 1-6, GST-SBP tag (UNK, Homo sapiens, UniProt Q9C0B0, residues 30-357)
Sequence of UniProt Q9C0B0 (30-357, looked up): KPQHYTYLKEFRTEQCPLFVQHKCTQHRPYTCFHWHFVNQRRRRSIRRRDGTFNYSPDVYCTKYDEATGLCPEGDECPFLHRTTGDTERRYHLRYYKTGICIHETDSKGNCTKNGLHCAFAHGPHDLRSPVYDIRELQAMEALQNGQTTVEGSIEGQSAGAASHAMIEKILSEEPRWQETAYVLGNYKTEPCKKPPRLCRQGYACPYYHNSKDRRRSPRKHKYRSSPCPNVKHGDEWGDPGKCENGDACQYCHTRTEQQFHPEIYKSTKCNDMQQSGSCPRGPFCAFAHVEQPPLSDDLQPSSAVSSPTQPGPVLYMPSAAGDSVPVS
Setting: RNA with constant flanks, human-mouse chimeric sites, ends assumed
Shared flanks, not repeated: GGGAGUUCUACAGUCCGACGAUC … CAACAGAGGAUUGAGCAUCA
GUAGCUGGCCAUUAGGAAAUGCUGGUAAUUUCAGUCAGUGAGUCGUGACUUCUGAUGUCCCAGCAAAUGUUGGCAUUGUUGACUGCUGAGAAGAUACUUCUGAGGACCCACGUCUAAGGU: 0.234 ratio
GAAUCCUACUCAGGCGGUCCCACAACAACCAAGCUCAAGUAGCAAUUAUCUUAGUCACAGUAGGGUAGUUUUGGGGCUCUGUGGCCAGGGUUUUAUUCACAUGCAGGUUUGGAAAAUGUA: 1.4 ratio
AUCCAGUACUCCAAUCACAAAGAACUAAAGACAGAUAAUACAUUAAACCAACGUGCUCAGGCAGUUCUUCAAGCUGUGACAGCGGUCCAGACAGCAAAUACUCCUCUUAGUGGCACCACA: 0.357 ratio
UUAAUCCCCUUUACUGCUCCACCACUGCUCAUGGUAAUGACAAAAACUUAUAUCCCCGUCCUAGCUUUCACUCAGAUGGCUUAUGGAGCCGGUUUCCUAGCUUUCUUGGGAGGGAUCAGA: 0.268 ratio
GUAAUGUUUAUUCAUUUAACUUAUUUUUAUAGCUAGAUAAAUAUUGUUAGUCUUAGAGAGUAGUUCACAUUUUUUGAGAAGCAUGCCCUCCCUGUCCAUUUGUCUUAUAACAUGACCCAG: 10.9 ratio
GUAUACGGUUAUCGAGGAAAGGACUGUAGAGCGAAUGUAUACCUGCUUCCCACAGGGAAAAUAGUUUAUUUUAUCGCCUCAGUGGUAGUCCUGUUUAAUUAUGAGGAGAGGACUCAGCGA: 19.9 ratio
CUGUGACCACAAGAUCCUACCUGAGUGGCAGCUGAAGUUGACUCCCUCUCCUUGCCUGAACCCCCCCCUUUUGUUCCUUGAGUCCACAGUGUCGGCUGAGAUGUUGCCUCUGCACGGUUC: 1 ratio
AUCAAAUACUUUGGGGAUAUUAUUAGCGUGGGACAGAGACUGUUGCAAGGAGCUCGGAUCUUAGGGAUUCCAGUUAUCAUAACGGAACAAUACCCCAAAGGUCUUGGCAGCACCGUUCAA: 0.268 ratio

Series 3 — technique: protein-binding microarray; form: double-stranded DNA, one strand shown; medium: in vitro; concentration: 0.8 µM; setting: whole 60-bp probe, no competitor; direction: higher = stronger binding; endpoint: fluorescence intensity; shared flanks, not repeated: … GTCTTGATTCGCTTGACGCTGCTG
Target: Centromere-binding protein 1, full length, N-terminal tag (CBF1, Saccharomyces cerevisiae, UniProt P17106, residues 1-351)
Sequence of UniProt P17106 (whole entry, looked up): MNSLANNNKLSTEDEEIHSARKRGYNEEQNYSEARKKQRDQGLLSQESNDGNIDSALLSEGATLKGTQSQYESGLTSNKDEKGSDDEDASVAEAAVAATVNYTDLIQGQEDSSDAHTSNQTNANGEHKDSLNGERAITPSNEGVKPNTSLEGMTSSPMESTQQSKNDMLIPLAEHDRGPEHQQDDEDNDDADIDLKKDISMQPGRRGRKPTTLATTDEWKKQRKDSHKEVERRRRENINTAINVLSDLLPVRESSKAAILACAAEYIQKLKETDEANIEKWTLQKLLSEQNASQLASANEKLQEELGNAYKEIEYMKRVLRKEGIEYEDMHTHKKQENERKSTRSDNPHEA
CTAACTGTTATCCTCCACGTTTTTTCCACTGTTTTC: 604 a.u.
CCTAACTACTATAGCCTCGTGGCATAGCTTCGTACA: 578 a.u.
GAATTTCTGAATGATCAGCTGTTTAAGTTCGAATAG: 910 a.u.
GAAACCAAATGCGGCCACGTTTAGGGCAGAGCATAG: 505 a.u.
GAAGGCGGCAAAAGGCGGGTGATTCGAAAAGTATAG: 527 a.u.
GAATACTCAAGTGTATACGTGCATGCTTTTTTTTAG: 616 a.u.
CTAGTAAAGAATTGCTACGTGGTGACTCAAAGTTTC: 548 a.u.
CTAACTATACATCAACATCAGCATCAAAATTAATTC: 559 a.u.

Other studies, line by line
PhoQ, residues 284 288 289 292 302 303 ALVSVA
fold induction (PhoP, residues 12 14 15 18 19 MHTVL (Escherichia coli, UniProt P23836); Sort-seq, refers to: YFP reporter; E. coli; PhoQ-PhoP variant library, together with: 10 µM Mg2+; relative to: high Mg2+ state, higher = stronger signaling): 18.8

A few entries again (series 1):
TCACTCTCTCTATTCTGTGGGTGCTAG: 2 z-score
TTAGGACTGGGTAGCGGTTAGTGCTAG: -0.755 z-score
GATTGGTTGAACATGAACTTGTGCTAG: 0.223 z-score
